Measurements of several laboratories.
Compare with care: the assays were run in different laboratories. ± marks the error that the study gave.
GBA1 R534H: Lysosomal acid glucosylceramidase (GBA1, Homo sapiens, UniProt P04062, R534H)
Chain of UniProt P04062 (whole entry, unmodified, looked up): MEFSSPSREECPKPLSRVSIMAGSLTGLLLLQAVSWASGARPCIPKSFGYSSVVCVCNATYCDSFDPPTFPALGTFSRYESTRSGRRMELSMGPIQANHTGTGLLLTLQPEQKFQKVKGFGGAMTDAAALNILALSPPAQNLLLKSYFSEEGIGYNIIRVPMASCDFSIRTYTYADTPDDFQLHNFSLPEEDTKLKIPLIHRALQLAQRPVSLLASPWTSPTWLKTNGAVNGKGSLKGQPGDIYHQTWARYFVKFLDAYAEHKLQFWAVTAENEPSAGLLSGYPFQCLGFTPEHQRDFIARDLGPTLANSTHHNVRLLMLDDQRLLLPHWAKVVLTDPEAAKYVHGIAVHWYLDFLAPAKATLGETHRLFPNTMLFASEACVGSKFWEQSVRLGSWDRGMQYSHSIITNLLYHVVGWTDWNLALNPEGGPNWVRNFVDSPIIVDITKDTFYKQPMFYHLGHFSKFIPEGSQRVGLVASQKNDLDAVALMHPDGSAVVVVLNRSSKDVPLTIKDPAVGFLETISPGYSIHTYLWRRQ
CA12: Carbonic anhydrase 12 (CA12, Homo sapiens, UniProt O43570)
Chain of UniProt O43570 (whole entry, looked up): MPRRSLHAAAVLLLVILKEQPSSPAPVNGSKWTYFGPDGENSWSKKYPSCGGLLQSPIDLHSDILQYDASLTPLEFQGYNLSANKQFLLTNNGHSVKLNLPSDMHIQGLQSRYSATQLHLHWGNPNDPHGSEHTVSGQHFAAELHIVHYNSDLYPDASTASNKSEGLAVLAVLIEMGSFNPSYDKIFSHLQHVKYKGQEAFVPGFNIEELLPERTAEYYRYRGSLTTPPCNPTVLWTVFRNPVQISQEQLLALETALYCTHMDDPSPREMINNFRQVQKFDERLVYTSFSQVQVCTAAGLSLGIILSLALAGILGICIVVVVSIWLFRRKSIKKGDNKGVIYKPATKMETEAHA
HDAC6: Protein deacetylase HDAC6 (HDAC6, Homo sapiens, UniProt Q9UBN7)
Chain of UniProt Q9UBN7 (whole entry, looked up): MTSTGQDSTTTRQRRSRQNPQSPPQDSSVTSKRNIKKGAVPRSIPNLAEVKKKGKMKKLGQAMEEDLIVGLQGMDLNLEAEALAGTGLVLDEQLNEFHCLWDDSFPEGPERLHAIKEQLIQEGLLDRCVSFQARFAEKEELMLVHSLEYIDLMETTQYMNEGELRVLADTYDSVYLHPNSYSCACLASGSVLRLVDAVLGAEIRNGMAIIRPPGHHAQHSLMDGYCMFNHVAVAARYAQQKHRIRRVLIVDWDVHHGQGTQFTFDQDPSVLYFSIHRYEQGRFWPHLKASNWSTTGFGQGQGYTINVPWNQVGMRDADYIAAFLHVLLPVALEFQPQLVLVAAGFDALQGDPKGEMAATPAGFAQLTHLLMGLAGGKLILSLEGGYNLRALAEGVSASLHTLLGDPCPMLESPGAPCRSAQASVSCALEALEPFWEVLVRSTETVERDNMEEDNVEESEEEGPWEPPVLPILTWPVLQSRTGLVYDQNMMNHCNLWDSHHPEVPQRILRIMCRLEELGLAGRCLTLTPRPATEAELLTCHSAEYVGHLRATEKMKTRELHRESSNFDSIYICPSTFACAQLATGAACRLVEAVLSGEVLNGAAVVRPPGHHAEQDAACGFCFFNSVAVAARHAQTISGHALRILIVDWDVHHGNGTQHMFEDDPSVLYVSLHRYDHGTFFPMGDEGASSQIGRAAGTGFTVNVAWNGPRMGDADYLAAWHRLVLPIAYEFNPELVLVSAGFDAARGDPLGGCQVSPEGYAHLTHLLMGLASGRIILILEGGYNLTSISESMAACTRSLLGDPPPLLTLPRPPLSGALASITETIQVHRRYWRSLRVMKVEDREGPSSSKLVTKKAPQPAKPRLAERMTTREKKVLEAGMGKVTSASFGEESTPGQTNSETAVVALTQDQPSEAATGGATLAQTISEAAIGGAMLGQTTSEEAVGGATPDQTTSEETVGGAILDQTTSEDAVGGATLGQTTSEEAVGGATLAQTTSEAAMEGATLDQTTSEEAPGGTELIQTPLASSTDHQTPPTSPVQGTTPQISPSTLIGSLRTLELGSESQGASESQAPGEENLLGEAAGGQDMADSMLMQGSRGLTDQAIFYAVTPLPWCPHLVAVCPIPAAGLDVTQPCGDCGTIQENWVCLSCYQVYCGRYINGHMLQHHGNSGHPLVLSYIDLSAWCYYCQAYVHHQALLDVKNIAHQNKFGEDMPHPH
PNMT: Phenylethanolamine N-methyltransferase (PNMT, Homo sapiens, UniProt P11086)
Chain of UniProt P11086 (whole entry, looked up): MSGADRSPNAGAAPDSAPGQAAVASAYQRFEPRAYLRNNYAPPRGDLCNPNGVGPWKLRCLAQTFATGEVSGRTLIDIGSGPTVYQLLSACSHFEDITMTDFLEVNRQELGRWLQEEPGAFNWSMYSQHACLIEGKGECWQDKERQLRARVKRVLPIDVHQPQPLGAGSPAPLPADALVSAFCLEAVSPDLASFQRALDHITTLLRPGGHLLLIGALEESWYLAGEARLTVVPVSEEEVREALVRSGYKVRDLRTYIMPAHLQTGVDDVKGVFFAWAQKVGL
HTR2A: 5-hydroxytryptamine receptor 2A (HTR2A, Homo sapiens, UniProt P28223)
Chain of UniProt P28223 (whole entry, looked up): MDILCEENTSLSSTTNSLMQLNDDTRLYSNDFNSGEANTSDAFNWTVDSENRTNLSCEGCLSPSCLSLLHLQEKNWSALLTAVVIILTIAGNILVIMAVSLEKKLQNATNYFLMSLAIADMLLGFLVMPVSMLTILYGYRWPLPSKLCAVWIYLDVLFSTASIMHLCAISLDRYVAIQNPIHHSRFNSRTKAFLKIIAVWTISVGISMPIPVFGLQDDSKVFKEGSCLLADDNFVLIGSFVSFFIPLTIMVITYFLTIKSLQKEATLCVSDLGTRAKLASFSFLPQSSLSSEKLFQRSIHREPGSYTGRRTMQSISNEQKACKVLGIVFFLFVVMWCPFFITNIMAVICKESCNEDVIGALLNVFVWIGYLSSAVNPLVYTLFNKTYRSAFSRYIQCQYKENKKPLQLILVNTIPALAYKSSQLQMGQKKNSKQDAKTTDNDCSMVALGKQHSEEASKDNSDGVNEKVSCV
POLL: DNA polymerase lambda (POLL, Homo sapiens, UniProt Q9UGP5)
Chain of UniProt Q9UGP5 (whole entry, looked up): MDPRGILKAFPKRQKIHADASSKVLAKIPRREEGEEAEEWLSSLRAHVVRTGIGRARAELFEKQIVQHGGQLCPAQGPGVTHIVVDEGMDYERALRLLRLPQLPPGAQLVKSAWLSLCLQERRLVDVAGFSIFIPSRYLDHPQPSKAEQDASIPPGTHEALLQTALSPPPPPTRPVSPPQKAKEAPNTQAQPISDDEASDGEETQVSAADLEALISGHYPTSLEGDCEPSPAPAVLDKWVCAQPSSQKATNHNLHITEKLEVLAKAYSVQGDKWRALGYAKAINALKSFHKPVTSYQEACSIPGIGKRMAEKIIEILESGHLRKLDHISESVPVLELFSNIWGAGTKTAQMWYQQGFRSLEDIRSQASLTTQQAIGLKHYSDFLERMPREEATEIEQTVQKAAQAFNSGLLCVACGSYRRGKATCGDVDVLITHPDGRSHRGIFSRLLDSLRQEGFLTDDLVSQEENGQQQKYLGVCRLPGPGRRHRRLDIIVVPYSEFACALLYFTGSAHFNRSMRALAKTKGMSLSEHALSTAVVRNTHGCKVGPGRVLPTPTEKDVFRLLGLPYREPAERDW
WDR5: WD repeat-containing protein 5 (WDR5, Homo sapiens, UniProt P61964)
Chain of UniProt P07478 (whole entry, looked up): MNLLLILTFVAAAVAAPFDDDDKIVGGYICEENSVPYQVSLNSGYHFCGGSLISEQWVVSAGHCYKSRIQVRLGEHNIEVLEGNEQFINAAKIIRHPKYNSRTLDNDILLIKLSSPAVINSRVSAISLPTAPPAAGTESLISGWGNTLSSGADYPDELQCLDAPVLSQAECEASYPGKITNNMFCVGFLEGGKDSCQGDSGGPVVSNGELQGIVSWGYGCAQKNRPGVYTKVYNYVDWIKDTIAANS
Chain of UniProt P45983 (whole entry, looked up): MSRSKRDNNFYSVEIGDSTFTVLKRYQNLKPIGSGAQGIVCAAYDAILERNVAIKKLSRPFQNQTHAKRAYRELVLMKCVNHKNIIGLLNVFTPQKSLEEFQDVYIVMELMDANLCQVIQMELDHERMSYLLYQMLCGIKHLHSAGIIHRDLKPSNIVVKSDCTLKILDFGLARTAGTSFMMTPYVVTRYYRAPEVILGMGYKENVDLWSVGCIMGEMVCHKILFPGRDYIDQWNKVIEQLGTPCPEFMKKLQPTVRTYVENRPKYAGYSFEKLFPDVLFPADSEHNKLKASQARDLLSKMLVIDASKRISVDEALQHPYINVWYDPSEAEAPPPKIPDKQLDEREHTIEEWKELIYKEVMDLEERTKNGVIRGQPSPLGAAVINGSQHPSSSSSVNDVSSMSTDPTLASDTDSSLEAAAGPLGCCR
Chain of UniProt P43235 (whole entry, looked up): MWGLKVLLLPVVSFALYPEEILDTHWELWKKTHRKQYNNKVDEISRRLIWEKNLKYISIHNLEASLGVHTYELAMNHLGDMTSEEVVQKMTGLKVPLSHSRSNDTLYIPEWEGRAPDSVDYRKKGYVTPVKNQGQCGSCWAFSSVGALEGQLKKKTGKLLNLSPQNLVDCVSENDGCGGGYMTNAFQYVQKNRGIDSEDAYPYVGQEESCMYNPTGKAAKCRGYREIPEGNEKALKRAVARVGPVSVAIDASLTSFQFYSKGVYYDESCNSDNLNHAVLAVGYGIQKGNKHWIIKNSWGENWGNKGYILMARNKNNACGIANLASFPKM
Chain of UniProt P34913 (whole entry, looked up): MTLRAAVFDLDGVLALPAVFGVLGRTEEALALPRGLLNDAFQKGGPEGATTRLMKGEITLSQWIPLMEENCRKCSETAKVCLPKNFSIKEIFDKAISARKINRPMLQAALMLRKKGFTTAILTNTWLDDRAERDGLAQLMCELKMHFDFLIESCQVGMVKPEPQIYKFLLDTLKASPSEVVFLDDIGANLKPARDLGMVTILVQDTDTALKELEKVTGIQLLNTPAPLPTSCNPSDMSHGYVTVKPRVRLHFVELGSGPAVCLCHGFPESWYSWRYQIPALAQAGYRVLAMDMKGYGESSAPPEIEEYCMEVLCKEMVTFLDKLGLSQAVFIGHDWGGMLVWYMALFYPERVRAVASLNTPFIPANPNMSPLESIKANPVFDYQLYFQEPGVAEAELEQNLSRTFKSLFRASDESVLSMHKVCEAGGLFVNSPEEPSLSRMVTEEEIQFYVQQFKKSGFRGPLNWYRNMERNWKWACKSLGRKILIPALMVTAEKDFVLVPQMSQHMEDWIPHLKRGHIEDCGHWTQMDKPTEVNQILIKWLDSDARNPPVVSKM

CCCC[C@H](NC(C)=O)C(=O)N[C@@H](CO)C(=O)N[C@H](C(=O)N1CCC[C@H]1C(=O)N[C@]1(C)CCCCCCC=CCCC[C@@](C)(C(=O)N[C@@H](Cc2ccccc2)C(=O)N[C@@H](CCCCN)C(=O)N[C@@H](CCCNC(=N)N)C(=O)N[C@@H](CC(C)C)C(=O)N[C@@H](CCC(N)=O)C(N)=O)NC(=O)[C@H](CCCNC(=N)N)NC(=O)[C@H](CCCC)NC(=O)[C@H](CC(C)C)NC(=O)[C@H](CCCNC(=N)N)NC(=O)[C@H](CCCNC(=N)N)NC(=O)[C@H](CCCNC(=N)N)NC1=O)[C@@H](C)O
remaining peptide (proteinase K; LC-MS; 25 µM, 307.5 min, pH 7.4): 61.9%

OC[C@@H]1[C@@H](O)[C@H](O)[C@@H](O)CN1CCCCCOCc1ccc(-c2ccccc2)c(C(F)(F)F)c1
IC50 (GBA1 R534H; inhibitor, 4MU-β-D-glucopyranoside; with: 4MU-β-D-glucopyranoside): 0.1 µM

CN1CCCNC(=O)c2cccc(c2)C(=O)NCCCN(C)CCCNc2cccc3c2C(=O)c2cccc(c2C3=O)NCCC1
body weight (mouse xenograft model; dose not given, day 0, group mean): 25.6 g

O=C1CCc2c(ccc3ccccc23)O1
Ki (CA12; enzyme activity, inhibitor, stopped-flow): 5.7 µM

O=C1Nc2ccccc2/C1=C1/Nc2ccccc2/C1=N\O
Ki (Bifunctional epoxide hydrolase 2 (EPHX2, Homo sapiens, UniProt P34913); enzyme activity, inhibitor, fluorescence): 78.9 µM

CCCCCCC(=O)N[C@H]1CCOC1=O
Ki (CA12; enzyme activity, inhibitor, stopped-flow): 16.9 µM

Cc1nc(-c2c[nH]c(C(=O)Nc3ncccc3O)c2)cs1
Ki (Trypsin-2 (Homo sapiens, UniProt P07478); enzyme activity, inhibitor, mixed inhibition model; with: Z-GPR-pNA): 185 ± 3 µM

O=C(NO)c1cc(F)cc(OS(=O)(=O)Oc2ccc3ccccc3c2)c1
Ki (HDAC6; enzyme activity, inhibitor, fluorescence): 0.053 µM

Nc1ncnc2c1ncn2[C@@H]1O[C@H](CN(CCCc2cncc3ccccc23)CC[C@H](N)C(=O)O)[C@@H](O)[C@H]1O
Ki (PNMT; enzyme activity, inhibitor, coupled-enzyme): 64 ± 10 µM

Cc1nn(-c2cccc(N)c2)c(=O)c2cnc(Nc3ccc(N4CCNCC4)cc3)nc12
IC50 (Serine/threonine-protein kinase PLK3 (PLK3, Homo sapiens, UniProt Q9H4B4); kinase activity, inhibitor, SelectScreen kinase profiling): > 10 µM

Cc1c(Cl)c(=O)oc2cc(OCCCCCCSC#N)ccc12
Ki (CA12; enzyme activity, inhibitor, stopped-flow): 0.0459 µM

COC1CN([C@H]2CC[C@H]([C@@]3(C)Oc4c(Cl)cc(C(=O)NCc5c(SC)cc(C)[nH]c5=O)c(C)c4O3)CC2)C1
log2 fold change (RNA-seq, item: NOS1AP mouse homolog; mouse, HT-1376 xenograft, whole blood; dose not given; baseline: vehicle): 0.182

Cc1cc(C(C)(C)C)ccc1OS(=O)(=O)Oc1cncc(C(=O)NO)c1
Ki (HDAC6; enzyme activity, inhibitor, fluorescence): 0.306 µM

CCc1c(Cl)cccc1N1CCN(C[C@@H](F)CCNC(=O)c2cc3ccccc3[nH]2)CC1
Ki (HTR2A; ligand displacement, radioligand; cell membranes): 0.292 µM

CC(C)c1ccc(OS(=O)(=O)Oc2cncc(C(=O)NO)c2)cc1
Ki (HDAC6; enzyme activity, inhibitor, fluorescence): 0.028 µM

O=C(OCCCCOP(=O)(O)OP(=O)(O)OP(=O)(O)O)c1ccccc1
Ki (POLL; DNA polymerase activity, inhibitor; with: 1 mM Mg2+, poly(dA)/oligo(dT)): 2.2 µM

OC[C@H]1[C@@H](O)[C@H](O)[C@@H](O)CN1CCCCCOCc1ccc(-c2ccccc2)c(F)c1
IC50 (GBA1 R534H; inhibitor, 4MU-β-D-glucopyranoside; with: 4MU-β-D-glucopyranoside): 6 µM

COC(=O)[C@]1(C)C=C(C(=O)Nc2cccc(C(=O)Nc3ccc(Nc4nccc(-c5cccnc5)n4)c(C)c3)c2)C(=O)CC1
Ki (Mitogen-activated protein kinase 8 (MAPK8, Homo sapiens, UniProt P45983); SPR two-step binding model; wild-type protein surface): 0.0021 µM

Cc1cc(=O)oc2c(F)c(O[C@@H]3C=C(CO)[C@@H](O)[C@H](O)[C@H]3O)c(F)cc12
Ki (Lysosomal acid glucosylceramidase (GBA1, Homo sapiens, UniProt P04062); mixed-type inhibitor; with: resorufin β-glucoside): 17 ± 7 µM

O=C(NCc1ccc2c(c1)CN(C(=O)c1cc(-c3ccccc3)no1)C2)C1C=CC=CC=C1
Ki (FSP1; NADH oxidase activity, inhibitor; pH 7.2, with: NADH varied, no coenzyme Q1): 3.02 ± 0.78 µM

C=CC(=O)Nc1cccc(Cn2ncc3cnc(Nc4cnn(CCOC)c4)nc32)c1
percent of control (MLK2 human; binding, KINOMEscan; 100 nM; lower = stronger binding): 56%

CC[C@@H]1NC(=O)[C@H](CCCNC(=N)N)NC(=O)[C@H](NC(=O)C(C)C)CCCCNC(=O)c2cc(F)c(c(F)c2)N=Nc2c(F)cc(cc2F)C(=O)NCCNC1=O
Ki (WDR5; binding, inhibitor, competitive fluorescence polarization; trans isomer, 405 nm photostationary state): 3.69 µM

Nc1ncnc2c1ncn2C1OC(CN(CCC(N)C(=O)O)CCC2CNCc3c2ccc(Cl)c3Cl)C(O)C1O (mixture of isomers)
Ki (PNMT; enzyme activity, inhibitor, coupled-enzyme): 34.1 ± 7.1 µM

CC[C@@H]1NC(=O)[C@H](CCCNC(=N)N)NC(=O)[C@H](NC(=O)C(C)C)CNC(=O)c2cc(F)c(c(F)c2)N=Nc2c(F)cc(cc2F)C(=O)NCCNC1=O
Ki (WDR5; binding, inhibitor, competitive fluorescence polarization; cis isomer, 520 nm photostationary state): 1.52 µM

O=C(NO)c1cncc(OS(=O)(=O)Oc2ccccc2-c2ccccc2)c1
Ki (HDAC6; enzyme activity, inhibitor, fluorescence): 0.11 µM

Cc1ncsc1-c1ccc(C(C)NC(=O)C2CC(O)CN2C(=O)C(NC(=O)CCCCCCCCCCN2CCCC(Nc3ncc(Cl)c(Nc4ccccc4S(=O)(=O)C(C)C)n3)C2)C(C)(C)C)cc1 (stereo not shown)
log2 fold change (22Rv1; RNA-seq, item: TIRAP mRNA; concentration not given; baseline: DMSO): -1.86

CCCCC1CCC(=O)O1 (stereo not shown)
Ki (CA12; enzyme activity, inhibitor, stopped-flow): 7.6 µM

O=P(O)(O)OP(=O)(O)OP(=O)(O)OCCCCO
Ki (POLL; DNA polymerase activity, inhibitor; with: 1 mM Mg2+, poly(dA)/oligo(dT)): 22 µM

CC(C)c1ccccc1OS(=O)(=O)Oc1cccc(C(=O)NO)c1
Ki (HDAC6; enzyme activity, inhibitor, fluorescence): 0.335 µM

O=C(Nc1cccc(C(=O)N2CCC(c3nc(-c4ccccc4)n[nH]3)CC2)c1)c1ccccc1
Ki (FSP1; NADH oxidase activity, inhibitor; pH 7.2, with: NADH varied, no coenzyme Q1): 5.41 ± 2 µM

N#CSCCCCCCOc1ccc2c(-c3ccccc3)cc(=O)oc2c1
Ki (CA12; enzyme activity, inhibitor, stopped-flow): 0.126 µM

COC(=O)CN1CCCc2cc3cc(C(=O)NC(Cc4cccc(Cl)c4)C(=O)NCC=CS(=O)(=O)c4ccccc4)c(=O)oc3cc21 (stereo not shown)
Ki (Cathepsin K (CTSK, Homo sapiens, UniProt P43235); enzyme activity, inhibitor, fluorescence): 0.0766 µM

O=C(NCCOP(=O)(O)OP(=O)(O)OP(=O)(O)O)OCC1c2ccccc2-c2ccccc21
Ki (POLL; DNA polymerase activity, inhibitor; with: 1 mM Mn2+, poly(dA)/oligo(dT)): 4.5 µM

Nc1ncc(-c2cc(-c3cnn(CC(F)(F)F)c3)ncc2F)nc1C(=O)NC1CNCC(F)C1 (stereo not shown)
remaining binding (ROCK1; KINOMEscan; 1 µM; baseline: DMSO control): 100%

Cc1cc(C(C)(C)C)ccc1OS(=O)(=O)Oc1cccc(/C=C/C(=O)NO)c1
Ki (HDAC6; enzyme activity, inhibitor, fluorescence): 0.871 µM

O=C(NCCCCCCOP(=O)(O)OP(=O)(O)OP(=O)(O)O)OCC1c2ccccc2-c2ccccc21
Ki (POLL; enzyme activity, inhibitor, radiometric): 2 µM

CNS(=O)(=O)Nc1nccc(Cc2c(C)c3ccc(Oc4ncccc4F)cc3oc2=O)c1F
IC50 (MDA-MB-175-VII; cell viability, CellTiter-Glo; 7 days): 0.159 µM

Cn1ccc2c(N3CCN(CCCCOc4ccc5c(c4)NC(=O)CC5)CC3)cccc21
Ki (HTR2A; ligand displacement, radioligand): 0.122 µM

CC[C@H](C)[C@@H]1NC(=O)[C@H](Cc2ccccc2C(F)(F)F)NC(=O)CCSCc2cccc(n2)CSCCCNC(=O)[C@H](CCCCCC(=O)NO)NC1=O
Ki (HDAC6; enzyme activity, inhibitor, fluorescence): 0.021 µM

CC[C@@H]1NC(=O)[C@H](CCCNC(=N)N)NC(=O)[C@H](NC(=O)C(C)C)CCNC(=O)c2cc(F)c(c(F)c2)N=Nc2c(F)cc(cc2F)C(=O)NCCNC1=O
Ki (WDR5; binding, inhibitor, competitive fluorescence polarization; trans isomer, 405 nm photostationary state): 0.688 µM

Some of these lines once more:
CNS(=O)(=O)Nc1nccc(Cc2c(C)c3ccc(Oc4ncccc4F)cc3oc2=O)c1F
IC50 (MDA-MB-175-VII; cell viability, CellTiter-Glo; 7 days): 0.159 µM

Cc1cc(C(C)(C)C)ccc1OS(=O)(=O)Oc1cccc(/C=C/C(=O)NO)c1
Ki (HDAC6; enzyme activity, inhibitor, fluorescence): 0.871 µM

Cc1nc(-c2c[nH]c(C(=O)Nc3ncccc3O)c2)cs1
Ki (Trypsin-2 (Homo sapiens, UniProt P07478); enzyme activity, inhibitor, mixed inhibition model; with: Z-GPR-pNA): 185 ± 3 µM

OC[C@@H]1[C@@H](O)[C@H](O)[C@@H](O)CN1CCCCCOCc1ccc(-c2ccccc2)c(C(F)(F)F)c1
IC50 (GBA1 R534H; inhibitor, 4MU-β-D-glucopyranoside; with: 4MU-β-D-glucopyranoside): 0.1 µM
